Measured values gathered from unrelated publications.
Protocols differ between the studies behind these lines. Several values in a cell are separate wells, animals, samples, runs or records. ± gives the spread as reported.
Organism: Plasmodium falciparum

CN1CCN(c2ccc(Nc3ccnc4cc(Cl)ccc34)cc2)CC1 — IC50 (parasite growth, SYBR Green; DD2; 72 h, drug-resistant strain, blood stage): 0.023 µM
COc1cc2[nH]c(C)c(-c3ccc(Oc4ccc(OC(F)(F)F)cc4)cc3)c(=O)c2cc1Cl — IC50 (parasite growth, SYBR Green I; D6, drug-sensitive; 72 h): 0.006 µM
CCOC(=O)C(=CNc1cccc(N(C)C)c1)C(=O)OCC — IC50 (parasite growth, [3H]hypoxanthine incorporation; NF54 (chloroquine-sensitive)): 26 µM and 26.3 µM
C[C@H]1[C@@H](OC[C@@H](O)[C@@H](O)CO[C@H]2O[C@@H]3O[C@@]4(C)CC[C@H]5[C@H](C)CC[C@@H]([C@H]2C)[C@@]35OO4)O[C@@H]2O[C@@]3(C)CC[C@H]4[C@H](C)CC[C@@H]1[C@@]24OO3 — IC50 (parasite growth; W2; 72 h, drug-resistant strain, blood stage): < 0.01 µM
COc1ccc(C(=O)/C=C/c2ccc(OCc3cn(-c4ccnc5cc(Cl)ccc45)nn3)c(OC)c2)c(OC)c1 — IC50 (parasite growth; DD2; drug-resistant strain, blood stage): 0.07 µM
CCN(CC)CCCC(C)Nc1ccnc2cc(Cl)ccc12 (centres unmarked) — IC50 (parasite growth, SYBR Green I; Dd2, chloroquine-resistant): 0.0938 ± 0.0099 µM
CCNC(=O)C1Cc2c([nH]c3ccccc23)C(c2ccc(Cl)cc2Cl)N1 (centres unmarked) — IC50 (parasite growth; Dd2): ~5 µM
[H]/N=C(\N/C(=N/[H])Nc1ccc(Cl)cc1)NC(C)C — IC50 (oxygen consumption; K1): > 10 µM
FC(F)(F)Oc1ccc(-c2cnc3cc(Cl)ccc3c2Nc2ccc(C3CN(Cc4ccccc4)CCO3)cc2)cc1 (centres unmarked) — IC50 (parasite growth, SYBR Green; DD2; 72 h, drug-resistant strain, blood stage): ≥ 0.25 µM
CCN(CC)CCCC(C)Nc1ccnc2cc(Cl)ccc12 (centres unmarked) — IC50 (parasite growth, flow cytometry; 3D7; 48 h, blood stage): 0.00505 µM
COc1ccc(C(=O)/C=C/c2ccc(O)c(CN3CCN(c4ccnc5cc(Cl)ccc45)CC3)c2)c(OC)c1 — IC50 (parasite growth; W2; drug-resistant strain, blood stage): 0.3 to 0.6 µM
C[C@H]1[C@@H](OC/C=C\CO)O[C@@H]2O[C@@]3(C)CC[C@H]4[C@H](C)CC[C@@H]1[C@@]24OO3 — IC50 (parasite growth; W2; 72 h, drug-resistant strain, blood stage): < 0.01 µM
CCCOC(=O)C1=C(C)NC2=C(C(=O)CC(c3ccc(OC)c(OC)c3)C2)C1c1ccccc1F (centres unmarked) — IC50 (female gamete formation, refers to: Pfs25; stage V gametocytes; 24 h, compound washed out before gametes): > 20 µM
COc1ccc(C2NC(C(=O)O)Cc3c2[nH]c2ccccc32)c(Cl)c1 (centres unmarked) — IC50 (parasite growth; Dd2): > 5 µM
CCOC(=O)C1=C(C)NC2=C(C(=O)CC(c3ccc(OC)c(OC)c3)C2)C1c1ccccc1Cl (centres unmarked) — IC50 (female gamete formation, refers to: Pfs25; stage V gametocytes; 24 h, compound washed out before gametes): > 20 µM
Clc1ccc2c(Nc3ccc(N4CCN(C5CC5)CC4)cc3)ccnc2c1 — IC50 (parasite growth, SYBR Green; D6; 72 h, blood stage): 0.027 µM
O=C(CCCCCONC(=O)c1ccco1)NO — IC50 (parasite growth; HN12, NF54; 72 h, gametocyte): ≤ 1 µM
COc1cc2nc(NCCc3ccccc3)nc(NCc3cc(C)no3)c2cc1OC — IC50 (parasite growth; 3D7; 72 h, asynchronous culture): 0.743 ± 0.162 µM
CNC(=O)C1Cc2c([nH]c3ccccc23)C(c2ccc(Cl)cc2Br)N1 (centres unmarked) — IC50 (parasite growth; Dd2): 0.34 ± 0.06 µM
CCN1CCN(c2ccc(Nc3ccnc4cc(C(F)(F)F)ccc34)cc2)CC1 — IC50 (parasite growth, SYBR Green; DD2; 72 h, drug-resistant strain, blood stage): 0.029 µM
O=C(O)C1Cc2c([nH]c3ccccc23)C(c2ccc(Cl)c(Cl)c2)N1 (centres unmarked) — IC50 (parasite growth; Dd2): > 10 µM
CSCCC(NC(=O)OCc1ccccc1)C(=O)NCC(=O)O (centres unmarked) — IC50 (parasite growth, parasite lactate dehydrogenase; NF54 (chloroquine-sensitive)): > 295 µM
O=c1c2c([nH]c3ccccc13)-c1ccc(F)cc1C2 — IC50 (parasite growth; NF54; blood stage): 0.044 µM
Clc1ccc2c(Nc3ccc(C4COCCN4Cc4ccccc4)cc3)ccnc2c1 (centres unmarked) — IC50 (parasite growth, SYBR Green; D6; 72 h, blood stage): ≥ 0.25 µM
C=C(C)C1CCC2(CO)CCC3(C)C(CCC4C5(C)CCC(OC(=O)/C=C/c6ccc(O)cc6)C(C)(CO)C5CCC43C)C12 (centres unmarked) — IC50 (parasite growth; Dd2 drug-resistant; 72 h): 0.65 ± 0.06 µM
CCN1CCN(c2ccc(Nc3ccnc4cc(Cl)c(Cl)cc34)cc2)CC1 — IC50 (parasite growth, SYBR Green; D6; 72 h, blood stage): 0.018 µM
COc1cc(C)c(-c2ccc(O)c3c2C[C@@H](C)N[C@@H]3C)c2cccc(O)c12 (single isomer, unassigned) — IC50 (parasite growth, SYBR Green; NF54; 96 h, blood stage): 0.038 µM
O=C1Nc2ccccc2C(=O)CCc2cc(F)ccc21 — IC50 (parasite growth; NF54 chloroquine-sensitive): 0.007 µM
C[C@H]1[C@@H](OCC(=O)CO)O[C@@H]2O[C@@]3(C)CC[C@H]4[C@H](C)CC[C@@H]1[C@@]24OO3 — IC50 (parasite growth; D6; 72 h, blood stage): < 0.01 µM
Oc1cccc(C(Nc2nccs2)c2ccc3cccnc3c2O)c1 (centres unmarked) — IC50 (ring stage growth; INDO; 12 h, early to late ring): > 8 µM
CC(C)(C)c1ccc(O)c(CNC2CCCCC2)c1 — IC50 (exflagellation; stage V gametocytes; 24 h, compound carried over): > 20 µM
COC1=CC(c2ccc[nH]2)=N/C1=C\c1[nH]c(Cc2cccc(F)c2)cc1Cc1cccc(F)c1 — IC50 (parasite growth; D6; 72 h): < 0.0083 µM
COc1ccc(C2CC(=O)C3=C(C2)NC(C)=C(C(=O)OC(C)C)C3c2ccccc2C)cc1OC (centres unmarked) — IC50 (female gamete formation, refers to: Pfs25; stage V gametocytes; 24 h, compound carried over): > 20 µM
O=C1C(O)=C([C@H]2CC[C@H](c3ccc(Cl)cc3)CC2)C(=O)c2ccccc21 — IC50 (parasite growth; 3D7): 0.0011 µM
CCN1CCOCC1c1ccc(Nc2c(-c3ccc(OC(F)(F)F)cc3)cnc3cc(Cl)ccc23)cc1 (centres unmarked) — IC50 (parasite growth, SYBR Green; DD2; 72 h, drug-resistant strain, blood stage): ≥ 0.25 µM
C=C(C)C1CCC2(CO)CCC3(C)C(CCC4C5(C)CCC(O)C(C)(COC(=O)/C=C/c6ccc(O)cc6)C5CCC43C)C12 (centres unmarked) — IC50 (parasite growth; Dd2 drug-resistant; 72 h): 0.26 ± 0.01 µM
CCN(CC)CCCC(C)Nc1ccnc2cc(Cl)ccc12 (centres unmarked) — IC50 (parasite growth, [3H]hypoxanthine incorporation; NF54; 72 h): 0.008 µM
CCOC(=O)C(=CNc1cccc2c(O)cccc12)C(=O)OCC — IC50 (parasite growth, [3H]hypoxanthine incorporation; NF54 (chloroquine-sensitive)): 12 µM
CN(C)C(=N)N=C(N)N — IC50 (parasite growth; 3D7; 48 h, blood stage): 1320 µM
CCOC(=O)C(Cc1c[nH]c2ccc([N+](=O)[O-])cc12)C(=O)OCC — IC50 (parasite growth, parasite lactate dehydrogenase; NF54 (chloroquine-sensitive)): 54 µM
CCCCN1CCC(c2ccc(Nc3ccnc4cc(Cl)ccc34)cc2)CC1 — IC50 (parasite growth, SYBR Green; DD2; 72 h, drug-resistant strain, blood stage): 0.011 µM
CCOC(=O)c1cnc(SC)nc1Nc1ccc(Cl)cc1 — IC50 (parasite growth, [3H]hypoxanthine incorporation; NF54 (chloroquine-sensitive)): 6.18 µM
O=C(CCCCCONC(=O)c1ccc(-c2ccccc2)cc1)NO — IC50 (parasite growth; HN12, NF54; 72 h, gametocyte): ≤ 1 µM
Oc1ccc(CCNc2c3ccccc3nc3ccccc23)cc1O — IC50 (parasite growth; erythrocytes; 48 h): 1.3 µM
